Assay results collected from several papers.
Each line is one published result; not all experiments were run side by side.
Target: Vascular endothelial growth factor receptor 2 (KDR, Homo sapiens, UniProt P35968)
Chain of UniProt P35968 (whole entry, looked up): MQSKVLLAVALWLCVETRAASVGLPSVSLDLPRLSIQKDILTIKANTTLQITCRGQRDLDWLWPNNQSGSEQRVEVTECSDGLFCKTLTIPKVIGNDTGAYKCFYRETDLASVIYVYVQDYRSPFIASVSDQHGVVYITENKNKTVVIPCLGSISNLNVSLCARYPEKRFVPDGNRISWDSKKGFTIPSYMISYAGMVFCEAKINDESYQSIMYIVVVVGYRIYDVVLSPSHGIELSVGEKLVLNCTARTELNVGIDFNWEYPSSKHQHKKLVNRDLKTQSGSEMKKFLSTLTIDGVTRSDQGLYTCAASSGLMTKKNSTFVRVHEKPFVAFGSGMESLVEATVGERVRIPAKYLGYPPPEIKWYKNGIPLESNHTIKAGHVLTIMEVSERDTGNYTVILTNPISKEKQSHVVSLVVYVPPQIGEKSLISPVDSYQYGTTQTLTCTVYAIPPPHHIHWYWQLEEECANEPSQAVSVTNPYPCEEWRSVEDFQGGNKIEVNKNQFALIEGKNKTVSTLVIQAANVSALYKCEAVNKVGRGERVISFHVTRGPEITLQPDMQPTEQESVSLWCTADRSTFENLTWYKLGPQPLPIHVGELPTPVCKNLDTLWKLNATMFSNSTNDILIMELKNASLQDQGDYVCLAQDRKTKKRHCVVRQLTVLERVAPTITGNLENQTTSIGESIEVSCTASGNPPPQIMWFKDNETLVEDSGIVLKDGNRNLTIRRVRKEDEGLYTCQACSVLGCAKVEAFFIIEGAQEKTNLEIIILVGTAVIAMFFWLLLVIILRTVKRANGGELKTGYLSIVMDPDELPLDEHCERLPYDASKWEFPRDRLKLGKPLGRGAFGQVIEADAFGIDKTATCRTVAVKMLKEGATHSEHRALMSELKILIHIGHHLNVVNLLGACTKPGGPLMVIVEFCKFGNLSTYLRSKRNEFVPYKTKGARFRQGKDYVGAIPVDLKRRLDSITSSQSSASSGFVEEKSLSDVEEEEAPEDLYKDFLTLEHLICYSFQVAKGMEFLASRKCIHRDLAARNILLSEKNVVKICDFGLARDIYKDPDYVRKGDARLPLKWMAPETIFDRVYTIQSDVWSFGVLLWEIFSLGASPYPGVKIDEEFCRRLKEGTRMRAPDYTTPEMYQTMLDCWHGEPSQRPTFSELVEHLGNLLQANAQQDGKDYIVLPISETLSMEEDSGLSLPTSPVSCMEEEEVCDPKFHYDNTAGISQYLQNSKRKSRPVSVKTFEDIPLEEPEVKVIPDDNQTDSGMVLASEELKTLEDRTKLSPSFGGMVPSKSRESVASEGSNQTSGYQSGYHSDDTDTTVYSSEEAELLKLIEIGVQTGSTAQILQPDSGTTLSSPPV

SMILES	assay	setting	how to read	measurement	value
CCOC(=O)[C@@H]1Cc2c(cc([N+](=O)[O-])cc2[N+](=O)[O-])[C@H](O)[C@]12C(=O)Nc1ccc(Br)cc12	binding, competition with immobilised ligand	0.1 µM	–	remaining binding	100%
N[C@H](C(=O)N1CCCC1)C1CCN(c2nccc3c(-c4ncc(Cl)cc4Cl)cccc23)CC1	cell-free assay	10 µM	–	inhibition	31%
C[C@H](NCc1ccc(-c2ccc(C(F)(F)F)cc2)cc1)C(N)=O	cell-free assay, competition with immobilised ligand	1 µM	–	inhibition	0%
O=C1NC(=O)c2c1c1cc(F)c[n+]3c1c1c2c2cc(O)ccc2[n]1[Ru-4]312([N]=C=S)[S+]3CC[S+]1CC[S+]2CC3 (centres unmarked)	enzyme activity	100 nM, human enzyme, added: 10 µM ATP	reference: untreated	remaining activity	27%
Nc1ccc(/C=C/C(=O)N2CCc3c(oc4c(-c5ccc(F)cc5)cc(-c5ccc(C(=O)N6CCC(F)(F)CC6)cn5)cc34)C2)cn1	binding, competition with immobilised ligand	1 µM	–	remaining binding	94%
CC(C)[C@H]1NC(=O)C[C@H]2/C=C/CCSSC[C@@H](NC1=O)C(=O)N[C@H](Cc1cccc3ccccc13)C(=O)NCC(=O)O2	enzyme activity, inhibitor	10 µM	–	inhibition	0.275%
C[C@@H]1COCCN1c1nc(NCc2cccnc2C(F)(F)F)c2cccnc2n1	binding	CEREP panel	–	IC50	> 100 µM
CS(C)(=O)=Nc1ccc(-c2ccc(-c3nc4cc(O[C@@H]5CO[C@H]6[C@@H]5OC[C@H]6O)[nH]c4cc3F)cc2)cc1	enzyme activity, inhibitor	10 µM	–	inhibition	8%

For quick reference, copied from above:
SMILES	assay	setting	how to read	measurement	value
N[C@H](C(=O)N1CCCC1)C1CCN(c2nccc3c(-c4ncc(Cl)cc4Cl)cccc23)CC1	cell-free assay	10 µM	–	inhibition	31%
